Published values gathered from unrelated publications.
Every numbered part comes from another study and shows a few of its results, in no order. Positions count from the first letter of the parent shown.

Series 1 — technique: universal PBM; molecule type: double-stranded DNA, one strand shown; medium: in vitro; tested at: 600 nM; reading: higher = stronger binding
Target: Sal-like protein 4, full length isoform A (SALL4, Homo sapiens, UniProt Q9UJQ4, residues 1-1053)
Sequence of UniProt Q9UJQ4 (whole entry, looked up): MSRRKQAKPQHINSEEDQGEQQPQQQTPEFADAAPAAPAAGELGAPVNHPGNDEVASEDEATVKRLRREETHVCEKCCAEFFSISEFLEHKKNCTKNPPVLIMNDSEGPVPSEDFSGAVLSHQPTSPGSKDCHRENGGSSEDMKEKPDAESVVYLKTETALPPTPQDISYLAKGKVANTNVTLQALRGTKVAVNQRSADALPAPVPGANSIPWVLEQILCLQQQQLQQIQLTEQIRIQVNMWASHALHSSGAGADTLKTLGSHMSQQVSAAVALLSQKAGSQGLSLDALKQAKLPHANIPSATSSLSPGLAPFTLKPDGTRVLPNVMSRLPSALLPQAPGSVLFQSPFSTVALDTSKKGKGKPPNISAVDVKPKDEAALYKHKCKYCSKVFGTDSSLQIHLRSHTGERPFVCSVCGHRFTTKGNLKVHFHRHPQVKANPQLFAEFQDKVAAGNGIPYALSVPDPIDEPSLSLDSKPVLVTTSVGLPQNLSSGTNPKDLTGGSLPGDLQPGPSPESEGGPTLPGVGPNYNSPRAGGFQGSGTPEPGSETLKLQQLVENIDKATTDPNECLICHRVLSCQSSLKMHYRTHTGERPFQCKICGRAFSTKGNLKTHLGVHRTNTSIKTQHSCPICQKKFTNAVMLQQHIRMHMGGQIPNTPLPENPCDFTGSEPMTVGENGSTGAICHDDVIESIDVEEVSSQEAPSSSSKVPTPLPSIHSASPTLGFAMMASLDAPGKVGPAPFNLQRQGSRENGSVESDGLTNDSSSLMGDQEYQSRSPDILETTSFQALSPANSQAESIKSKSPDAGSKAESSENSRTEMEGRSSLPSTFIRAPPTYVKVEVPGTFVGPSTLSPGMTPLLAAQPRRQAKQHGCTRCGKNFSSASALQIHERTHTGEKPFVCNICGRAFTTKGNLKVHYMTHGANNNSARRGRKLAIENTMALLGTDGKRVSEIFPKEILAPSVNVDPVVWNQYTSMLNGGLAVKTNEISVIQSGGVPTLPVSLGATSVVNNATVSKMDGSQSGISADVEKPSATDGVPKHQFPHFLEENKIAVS
Notes: 8-mer, flanks averaged, mean of replicates
Sequence	E-score
CACCGTCG	-0.268
CCAACACA	0.122
ACGTCGAT	-0.0418
CCAAACTA	0.0906
GGCTCTCA	-0.166
ACTTAAAG	0.0866
CTGAGCAC	-0.189
CGCTGTAA	0.0944
CTGATTCC	-0.152
CGGCTATA	0.0648
ATGCGCCC	-0.22
CTGCCTCA	-0.128
ACCTGCTA	0.0143
AAGAAAGC	-0.145
CTCGCCGA	-0.278
ATCAAGGG	0.00685
CAATACTG	0.164
CACCTTAC	0.043

Series 2 — target: CCNB3, cyclin fold, Cln2 fusion (human); technique: yeast growth competition, sequencing; medium: yeast; notes: weak parent motif; baseline: not given; reading: higher = stronger binding
Starting sequence: CDKN1A docking peptide (human); SKACRRLFGPVDS
Substitution	normalised enrichment score
SKACRRLFEPVDS [G9E]	0.351
SKACRRLFGPGDS [V11G]	0.513
SKACRRNFGPVDS [L7N]	0.214
SKLCRRLFGPVDS [A3L]	0.221
SKACRRFFGPVDS [L7F]	0.0634
SKRCRRLFGPVDS [A3R]	0.063
SKACRRLFGPVIS [D12I]	0.582
SKACRRKFGPVDS [L7K]	0.333
SKACKRLFGPVDS [R5K]	0.433
SKPCRRLFGPVDS [A3P]	0.987
SKACRRLFKPVDS [G9K]	0.42
SKACRYLFGPVDS [R6Y]	0.412
SKACRRLFGPNDS [V11N]	0.633
SKACRRLFGWVDS [P10W]	0.315
SKAIRRLFGPVDS [C4I]	0.652
SKACRSLFGPVDS [R6S]	0.292
SCACRRLFGPVDS [K2C]	0.605
SKACRRLFGPVPS [D12P]	0.433
SYACRRLFGPVDS [K2Y]	0.57
SKACRRLMGPVDS [F8M]	0.0856
SKACRRLFNPVDS [G9N]	0.3
SKACRRLFGTVDS [P10T]	0.627

Series 3 — target: MAFF, bZIP domain (human); technique: DHFR protein complementation; medium: yeast; baseline: wild-type JUN-FOS pair; reading: higher = stronger binding
Notes: single substitutions, most at no-binding floor
Starting sequence: JUN, bZIP domain (human); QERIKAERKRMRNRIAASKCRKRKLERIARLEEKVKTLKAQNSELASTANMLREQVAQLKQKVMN; partner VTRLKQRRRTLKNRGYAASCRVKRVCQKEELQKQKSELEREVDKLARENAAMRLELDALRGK
Substitution	binding fitness [natural log]
S43V	-1.47
A40K	-1.37
L38N	-1.5
L38P	-1.49
S47K	-1.49
L45F	-1.56
K39Q	-1.47
Q55G	-1.48
E33Q	-1.32
L45T	-1.5
E32F	-1.53
I28G	-1.44
K34V	-1.41
E54N	-1.43
A57R	-1.41
R30K	-1.48
E32C	-1.39
A29I	-1.29
M51W	-1.35
R30N	-1.33
Q41R	-1.54
A49D	-1.36
E33D	-1.48
M51D	-1.29
L59H	-1.56

Series 4 — technique: DHFR PCA, dose-response; medium: yeast; notes: Hill fit, mean, not affinity; added: (+)-ABA, dose series; reading: lower = more sensitive
Target: ABI1, truncated, D143A, DHFR fusion (Arabidopsis thaliana, UniProt P49597)
Starting sequence: PYL1, truncated, DHFR fusion (Arabidopsis thaliana, UniProt Q8VZS8); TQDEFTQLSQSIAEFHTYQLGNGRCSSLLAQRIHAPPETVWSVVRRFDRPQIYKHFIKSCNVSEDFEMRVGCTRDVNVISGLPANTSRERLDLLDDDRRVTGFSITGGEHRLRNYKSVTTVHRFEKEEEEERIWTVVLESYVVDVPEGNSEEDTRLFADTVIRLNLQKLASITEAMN
Substitution	ABA EC50 [µM]
F124G	6.04
Q51I	121
I105N	146
F124A	4.06
C72S	2.67
S63Y	11.8
V40P	868
G23I	76.9
E151P	2.57
L164A	0.937
F56V	413
L156H	4.25
W41F	167
G108A	443
S150A	46.4
F15K	257
R113D	15.2
F15G	323

Series 5 — target: UBE2E2 UBC core domain (UniProt Q96LR5); technique: yeast two-hybrid; medium: yeast; notes: mostly zero background; baseline: not given; reading: higher = stronger interaction
Sequence of UniProt Q96LR5 (whole entry, looked up): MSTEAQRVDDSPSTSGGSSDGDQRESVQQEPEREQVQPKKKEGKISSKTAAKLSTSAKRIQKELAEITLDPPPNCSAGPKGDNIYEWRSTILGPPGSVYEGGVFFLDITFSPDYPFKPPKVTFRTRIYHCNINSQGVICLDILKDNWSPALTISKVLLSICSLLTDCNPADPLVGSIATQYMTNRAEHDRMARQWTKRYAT
B1: TRIM2 RING domain (UniProt Q9C040); chain VRQIDKQFLICSICLERYKNPKVLPCLHTFCERCLQNYIPAHSLTLSCPVCRQTSILPEKGV
B2: RMND5B RING domain (UniProt Q96G75); chain MKCWYHSVFACPILRQQTSDSNPPIKLICGHVISRDALNKLINGGKLKCPYCPMEQNPADGK
B3: TRIM47 RING domain (UniProt Q96LD4); chain MDGSGPFSCPICLEPLREPVTLPCGHNFCLACLGALWPHRGASGAGGPGGAARCPLCQEPFPDGLQLR
B4: MDM2 RING domain (UniProt Q00987); chain TQDKEESVESSLPLNAIEPCVICQGRPKNGCIVHGKTGHLMACFTCAKKLKKRNKPCPVCRQPIQMIVLTYFP
B5: RNF32 RING domain (UniProt Q9H0A6); chain VQALRRETHECSICLAPLSAAGGQRVGAGRRSREMALLSCSHVFHHACLLALEEFSVGDRPPFHACPLCRSCYQKKILEC
B6: RNF17 RING domain (UniProt Q9BXT8); chain SQPWGAAEIQCTRCGRRVSRSSGHHCELQCGHAFCELCLLMTEECTTIICPDCEVATAVNTRQR
B7: TRIM74 RING domain (UniProt Q86UV6); chain SLLELEDWLQCPICLEVFKESLMLQCGHSYCKGCLVSLSYHLDTKVRCPMCWQVVDGSSSLP
B8: RNF11 RING domain (UniProt Q9Y3C5); chain RDGSEKKIRECVICMMDFVYGDPIRFLPCMHIYHLDCIDDWLMRSFTCPSCMEPVDAALLSS
B9: RNF130 RING domain (UniProt Q86XS8); chain DKETDPDFDHCAVCIESYKQNDVVRILPCKHVFHKSCVDPWLSEHCTCPMCKLNILKALGIV
Molecule	lacZ reporter activity
B1 (TRIM2 RING domain)	0
B2 (RMND5B RING domain)	0
B3 (TRIM47 RING domain)	0
MEEMEEELKCPVCGSFYREPIILPCSHNLCQACARNILVQTPESESPQSHRAAGSGVSDY (TRIM9 RING domain (UniProt Q9C026))	0
PLRRLQEEKLCKICMDRHIAVVFIPCGHLVTCKQCAEAVDRCPMCSAVIDFKQRVF (BIRC8 RING domain (UniProt Q96P09))	0
B4 (MDM2 RING domain)	0
B5 (RNF32 RING domain)	0
B6 (RNF17 RING domain)	0
VPADASPDSKCPICLDRFDNVSYLDRCLHKFCFRCVQEWSKNKAECPLCKQPFDSIFHSV (TOPORS RING domain (UniProt Q9NS56))	0
B7 (TRIM74 RING domain)	0
B8 (RNF11 RING domain)	0
B9 (RNF130 RING domain)	0

For quick reference, copied from above (series 4):
Substitution	ABA EC50 [µM]
L164A	0.937
F56V	413
L156H	4.25
W41F	167
G108A	443
S150A	46.4
F15K	257
R113D	15.2
